Results pooled from the literature.
Parts stem from different laboratories: compare values within a part only. Positions count from the first letter of the parent shown.

Study 1
Target: Centromere-binding protein 1, full length, N-terminal tag (CBF1, Saccharomyces cerevisiae, UniProt P17106, residues 1-351)
Sequence of UniProt P17106 (whole entry, looked up): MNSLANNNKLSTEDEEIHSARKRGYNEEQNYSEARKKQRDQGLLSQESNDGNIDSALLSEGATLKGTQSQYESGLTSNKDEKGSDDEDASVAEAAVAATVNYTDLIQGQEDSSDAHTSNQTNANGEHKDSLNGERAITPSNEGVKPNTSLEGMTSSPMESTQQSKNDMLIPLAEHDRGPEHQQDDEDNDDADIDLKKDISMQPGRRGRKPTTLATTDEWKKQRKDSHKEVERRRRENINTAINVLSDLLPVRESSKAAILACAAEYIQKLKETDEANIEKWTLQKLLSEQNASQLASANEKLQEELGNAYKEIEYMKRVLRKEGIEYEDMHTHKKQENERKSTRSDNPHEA
Method: protein-binding microarray
Form: double-stranded DNA, one strand shown
Medium: in vitro
Tested at: 0.8 µM
Notes: whole 60-bp probe, no competitor
Direction: higher = stronger binding
Shared flanks, not repeated: … GTCTTGATTCGCTTGACGCTGCTG
Sequence	fluorescence intensity
CTAAGAACTATAAATCACATGTGCTGTCAAGAGTTC	2690 a.u.
GAAGAAGAAGAAAAACATCAGGGACAGATGAAATAG	542 a.u.
CTAATTTCATCACCCCACGCCATTGTTTTGTCCTTC	563 a.u.
CCTAACTACTATAACGTGAGCAAATAGCTTCGTACA	665 a.u.
GAAGGTCTCGAAGAACATCAGCACCACGCCCGCTAG	554 a.u.
CTAAGAACAGCTCTCCGCGTGTATATCTTTTTTTTC	529 a.u.
CTAGTGAAAACGGTGAACGTGGTTGTATACCTTTTC	558 a.u.
GAACTGAACTTGTTTCATGAGACTCATATCCAGTAG	540 a.u.
GAAGGGACGATAACCATCAGCAGGAAAAACGGTTAG	522 a.u.
CTACATATTTTGGCACGGGTGATGTACCGATCTTTC	672 a.u.
GAAATTGTTGGATCAGCTGTGCTAAGGGGAAGGTAG	687 a.u.
CTACTATTACAATTGTTCGTGATATGTATACATTTC	581 a.u.
GAATTCTTCAACTATCGCGTGAAAAATAGTACGTAG	603 a.u.
GAAACTCATTAAAGCCACCTGACTCAAGTCTTCTAG	1140 a.u.
CTACGGTTGTCTTTTCATGTGAGCAGAACTAAATTC	691 a.u.
CTAATGTTCTGCAAGAGCGTGCCTGGCCCTTGGTTC	541 a.u.
CTATTACTCCATCATCTGACACCTAGAGACGTATTC	1060 a.u.
CTAGCAACTGAACTTCTGATGTTTACTTTTTGATTC	526 a.u.
GAAACTTTTACACGTGACCGTAGAGGCTGCGCGTAG	16900 a.u.
CTATGGCGGCATAGTAACATCAAAAAAAAAAAATTC	519 a.u.

Study 2
Target: POU, POU domain (Salpingoeca helianthica)
Method: Spec-seq
Form: double-stranded DNA, one strand shown
Medium: in vitro
Tested at: not given
Notes: whole probe, mean of replicates
Baseline: not given
Direction: lower = stronger binding
Shared flanks, not repeated: GAGTCGTCTCGTCAGCAC … CCGTAGAGCACTCAGGTC
Residues (chain): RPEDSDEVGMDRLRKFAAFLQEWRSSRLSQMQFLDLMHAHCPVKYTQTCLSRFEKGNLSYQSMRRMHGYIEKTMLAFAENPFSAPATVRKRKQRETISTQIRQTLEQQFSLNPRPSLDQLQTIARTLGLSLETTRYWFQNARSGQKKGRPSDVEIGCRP
Sequence	relative binding energy [ln ratio]
ATGGACAT	1.28
TTTTTAAT	-0.092
CTCATAAT	0.103
ATGCCACG	1.43
ATGCGGGT	1.34
ATTGTTAT	-0.775
ATAAGCAT	0.875
ATCCGAAT	1.4
ATGGGCAT	1.36
ATAACCAT	-0.0599

Study 3
Target: Histone acetyltransferase KAT6A, both winged helices, GST fusion (KAT6A, Homo sapiens, UniProt Q92794, residues 1-181)
Method: protein binding microarray
Form: double-stranded DNA, one strand shown
Medium: in vitro
Tested at: not given
Notes: 8-mer, flanks averaged, mean of 2 arrays, mostly near background
Baseline: not given
Direction: higher = stronger binding
Target sequence (chain): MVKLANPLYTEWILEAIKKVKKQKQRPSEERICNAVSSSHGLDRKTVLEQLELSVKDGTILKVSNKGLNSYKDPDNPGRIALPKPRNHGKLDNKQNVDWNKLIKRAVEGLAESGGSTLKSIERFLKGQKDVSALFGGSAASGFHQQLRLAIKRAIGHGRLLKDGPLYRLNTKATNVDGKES
Sequence	E-score
CGACCAAA	-0.0451
GAGCAAAA	-0.23
ACTAACGG	0.138
TACTGTGA	-0.149
ATGCAAAG	-0.0706
AGTTCAGA	-0.094
GGCCTGAA	0.0215
CCGTGGCG	0.257
CGTTAGTC	-0.0293
CCTTTCCG	0.167
CACGTAAA	-0.00434
ATGCAAAA	-0.0726
ATGACTTG	-0.0176
TCATGAAA	-0.0161
AGTAGCCG	0.186
GGTCCTAA	-0.0459
TCATTGAA	0.0281
ATAAGGCG	0.201
CACAAACG	0.0948
AGAACGAT	0.004
GAGTGTAC	0.0537
CACCATTA	-0.041
AGTGTGTG	-0.0538

Study 4
Target: RING finger protein unkempt homolog, zinc fingers 1-6, GST-SBP tag (UNK, Homo sapiens, UniProt Q9C0B0, residues 30-357)
Sequence of UniProt Q9C0B0 (30-357, looked up): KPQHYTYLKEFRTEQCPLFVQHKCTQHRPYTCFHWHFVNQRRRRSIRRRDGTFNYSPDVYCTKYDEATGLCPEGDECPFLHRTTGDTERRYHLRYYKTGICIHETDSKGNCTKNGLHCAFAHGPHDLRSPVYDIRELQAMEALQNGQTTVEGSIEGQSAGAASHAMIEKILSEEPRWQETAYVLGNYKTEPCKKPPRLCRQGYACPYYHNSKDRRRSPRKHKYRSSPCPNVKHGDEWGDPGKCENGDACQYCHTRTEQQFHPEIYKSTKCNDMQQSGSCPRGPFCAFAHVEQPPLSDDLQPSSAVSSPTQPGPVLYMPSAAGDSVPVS
Method: RNA Bind-n-Seq
Form: RNA
Medium: in vitro
Tested at: not given
Notes: RNA with constant flanks, human-mouse chimeric sites, ends assumed
Baseline: input RNA pool
Direction: higher = stronger binding
Shared flanks, not repeated: GGGAGUUCUACAGUCCGACGAUC … CAACAGAGGAUUGAGCAUCA
Sequence	bound/input enrichment [ratio]
CCUCUGCCCCGCUCUGCAGCCUGGGGACACUGGGCUGGGACCAGAAUCCAGCUUUCUUUUAAAACUCUCAGUGUAACUGUAUCCCGUGACAUUUCAUUUUUUUUAAAAGAAAAAAACUUU	0.285
AAAGUGAUGACUAUGUUUGUCCAACGACAGGUGUUUGCGGAGAGCAAGGAUGAGAUUGCGUUAGUCCUCUAUGGCACAGAUGGCACUGAUAAUGCCCUUGCUGGCAAGGACCAGUAUCAG	0.138
UUAAUCCCCUUUACUGCUCCCCCACUUCUCAUGGUAAUAACAAAGUCUUAUAUUCCCGUCCUAGCUUUUACUCAGAUGGCUUAUGGAGCCGGUUUCCUAGCUUUCUUGGGAGGGAUCAGA	0.9
GACUUUGGGACUGGUCCUCGCAACGCAGCCUUCUAUAGCCCUCAUGGACAUAUAUUAGUGCUGGCUGGAUUUGGAAAUCUGAGGGGACAAAUGGAAGUAUGGGAUGUUAAAAACUACAAG	0.416
AUCCAGUACUCGAAUCACAAAGAACUAAAGACAGAUAAUACAUUAAACCAACGUGCUCAAGUAGUUCUUCAAGCUGUGACAGCUGUCCAGACAGCAAAUACUCCUCUUAGUGGCACCACA	0.34
UGUAGUUUCGCGGUUCAGGCUUUGUGUGUAGUUCACUUACGGUAUUAAAUUAUUAUUCUGCUUAGCUUAAAGUAAGGAUAAUUGCAUUUAAAGAGGUUACUGAAUGUUACUCUGAAACUU	0.273
CUGGCACUCUAUCAGAUAUAUUAAUUUUUUAAUGUAGAUGUAAUUUUAAAAAUGAAUGGCUACUUUACACGUUUAACUAGGGUUUUACUACAUAUGUGUGUGUAUAUAUAUAUAUAUAUA	9.98
GGGACUGAUUCAUUCCAAGGACAGGCCACCCCAUUUGAUGCCUGGACUGACGACAGUAUGGAAGGGCCUAGUCAAAAUGUUGAAGCUGAGUCAAUUCAGGAUGCCAUGAGUAUGGAAGAG	0.407
ACUCUUGACUCUUUCCAUCCUCUUCCUUUCCCUCUUGAUCUUCAAGGCCAUGAAUCCCAAAAUAACAGUCUUAGUGGGAGGCUAGCAAACAGAGGUGGAAUAAAUCCACCCCAGUGUCUC	0.613
CUCGGCACCGGCACGCUUUACAUCGCGGAGAGCCGCCUGUCCUGGUUAGAUGGCUCUGGAUUAGGAUUCUCACUGGAAUACCCCACCAUUAGUUUACAUGCGGUGUCCAGGGACCGAAAC	0.755
GAUCAUGGAACCAGAAUAGAAAUGAAGGAUGAGACUACCAGACGAGCCAAAACAGCUGCGCUACAGAAAAGUAAACUUAACCUUGCAGAGUUCCUUAAUGAAGAUACAAGUUAAGAGAGC	0.256

Study 5
Target: ABI1, truncated, D143A, DHFR fusion (Arabidopsis thaliana)
Method: DHFR PCA, deep sequencing
Medium: yeast
Notes: methotrexate growth selection, single substitutions
Added: (+)-ABA 2500 µM
Baseline: wild-type fitted maximum
Direction: higher = stronger binding
Starting sequence: PYL1, truncated, DHFR fusion (Arabidopsis thaliana); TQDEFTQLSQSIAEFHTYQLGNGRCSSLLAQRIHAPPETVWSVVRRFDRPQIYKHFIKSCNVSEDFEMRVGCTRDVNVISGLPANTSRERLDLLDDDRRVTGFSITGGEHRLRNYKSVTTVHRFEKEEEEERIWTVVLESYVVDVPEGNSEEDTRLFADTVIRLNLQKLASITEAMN; partner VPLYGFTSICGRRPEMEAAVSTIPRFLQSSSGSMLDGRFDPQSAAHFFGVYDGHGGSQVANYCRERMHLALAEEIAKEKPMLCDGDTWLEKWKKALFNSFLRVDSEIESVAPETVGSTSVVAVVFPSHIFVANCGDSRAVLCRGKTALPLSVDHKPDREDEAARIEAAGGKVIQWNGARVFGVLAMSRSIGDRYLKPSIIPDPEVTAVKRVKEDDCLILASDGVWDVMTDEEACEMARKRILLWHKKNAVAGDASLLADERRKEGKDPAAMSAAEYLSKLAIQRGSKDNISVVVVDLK
Change	relative binding score [%]
S26K	94.6
I162K	59.9
A84D	56.2
A158P	42.8
F157A	54.5
L169C	72.1
Q7K	104
T6C	101
V44A	100
L164K	93.5
G108N	85.6
V76K	33.2
E128I	100
N85A	97.2
N149Q	84.4
R99L	106
S27A	96.8
E151S	95.6
E130W	96

Study 6
Target: Ras GTPase-activating protein-binding protein 1, C-terminal RGG region (G3BP1, Homo sapiens, UniProt Q13283)
Sequence of UniProt Q13283 (whole entry, looked up): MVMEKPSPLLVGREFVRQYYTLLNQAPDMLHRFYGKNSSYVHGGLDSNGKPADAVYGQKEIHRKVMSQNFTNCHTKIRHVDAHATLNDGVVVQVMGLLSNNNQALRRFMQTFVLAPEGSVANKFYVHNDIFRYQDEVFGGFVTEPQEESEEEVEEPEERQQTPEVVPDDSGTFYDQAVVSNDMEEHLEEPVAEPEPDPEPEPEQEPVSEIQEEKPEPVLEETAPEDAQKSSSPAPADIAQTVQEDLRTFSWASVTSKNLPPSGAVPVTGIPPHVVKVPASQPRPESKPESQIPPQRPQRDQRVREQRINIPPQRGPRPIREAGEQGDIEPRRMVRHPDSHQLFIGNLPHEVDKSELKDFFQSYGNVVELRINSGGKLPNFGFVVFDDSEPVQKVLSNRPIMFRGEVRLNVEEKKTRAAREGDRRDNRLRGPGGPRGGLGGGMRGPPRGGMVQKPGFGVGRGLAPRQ
Method: RNA Bind-n-Seq
Form: RNA
Medium: in vitro
Tested at: 1 µM
Notes: whole 134-nt RNA, ends assumed
Added: 150 mM KCl
Baseline: input library
Direction: higher = stronger binding
Shared flanks, not repeated: GGGAGUUCUACAGUCCGACGAUC … UGGAAUUCUCGGGUGUCAAGG
Sequence	log2 enrichment
UGGGAGGUGGAUUUUGUUUAUUUUUUCAGCUCAUUUCCAGGGGUGGGAAUUUUUUUUUAAUAUGUGUCAUGAAUAAAGUUGUUUUUGAAA	3.72
CCCAGACAACACGCACCCACACAGACACAGAGGGAAGGGGUUGGGAUGGGGACAGGGUGCACAGCAGGGCGGGGUAGGACCCCAGCCCCU	0.0806
CUCAAGUCCUGUGCUACACAUCGUAUGUACCGAAUCGGGGCGGGGCGGGCGGGGAAAGUAUUAUGUUACGCCGUUCGGAUCUGCACUUCC	1.83
AGUCCUGUGCUACACAUCGUAUGUACCGAAUCGGGUUUUUGGGAAAAAGGGUUUGGGAAAGUAUUAUGUUACGCCGUUCGGAUCUGCACU	0.74
UCCUGUGCUACACAUCGUAUGUACCGAAUCGGCCCCCCGGCCCCCCGGGCCCCCCGGGGAAAGUAUUAUGUUACGCCGUUCGGAUCUGCA	-1.12
GUCCUGUGCUACACAUCGUAUGUACCGAAUCGGGCCCCCCGGCCCCCCGGGCCCCCCGGAAAGUAUUAUGUUACGCCGUUCGGAUCUGCA	-0.886
AGUCCUGUGCUACACAUCGUAUGUACCGAAUCGGGAAAGGGUUUUUUUGGGUUUGGGAAAGUAUUAUGUUACGCCGUUCGGAUCUGCACU	0.179
AAGUCCUGUGCUACACAUCGUAUGUACCGAAUCGGUUUGGUUUUUUUGGAAAAAGGAAAGUAUUAUGUUACGCCGUUCGGAUCUGCACUU	-1.94
CCUGUGCUACACAUCGUAUGUACCGAAUCGGGAAAAAAAGGGAAAAAGGGAAAAAAAGGGAAAGUAUUAUGUUACGCCGUUCGGAUCUGC	-1.85
UAACUUUAGAGGAGGAUCUGAUGGAUAUGGAAGUGGACGUGGAUUUGGGGAUGGCUAUAAUGGGUAUGGAGGAGGACCUGGAGGUGGCAA	-0.845
GCAGGAAGUAAAAACAAAUGGAAAUGCUUCGGAUAGUGGCAGGGGUGGGGGUUCCUAAGGAAAGGGUGGGAUGGGAGUGGGUAAAGAGUU	1.08
GUCCUGUGCUACACAUCGUAUGUACCGAAUCGGGGAAAAAGGGAAAAAGGAAAAAGGGGAAAGUAUUAUGUUACGCCGUUCGGAUCUGCA	-0.889
CUGUGCUACACAUCGUAUGUACCGAAUCGGCCCCCCCGGGGCCCCCCCGGGGCCCCCCCGGGAAAGUAUUAUGUUACGCCGUUCGGAUCU	-2.34
CAAGUCCUGUGCUACACAUCGUAUGUACCGAAUCGGUGGUUUUUUUGGAAAAAGGAAAGUAUUAUGUUACGCCGUUCGGAUCUGCACUUC	-1.63
